Results gathered from unrelated publications.
Each numbered part is a random draw from the data of one study; scales do not carry over between parts. Values joined by “and” are separate records of one study, mostly repeats; a detail may differ.
UniProt Q8IU85, sequence (whole entry, looked up): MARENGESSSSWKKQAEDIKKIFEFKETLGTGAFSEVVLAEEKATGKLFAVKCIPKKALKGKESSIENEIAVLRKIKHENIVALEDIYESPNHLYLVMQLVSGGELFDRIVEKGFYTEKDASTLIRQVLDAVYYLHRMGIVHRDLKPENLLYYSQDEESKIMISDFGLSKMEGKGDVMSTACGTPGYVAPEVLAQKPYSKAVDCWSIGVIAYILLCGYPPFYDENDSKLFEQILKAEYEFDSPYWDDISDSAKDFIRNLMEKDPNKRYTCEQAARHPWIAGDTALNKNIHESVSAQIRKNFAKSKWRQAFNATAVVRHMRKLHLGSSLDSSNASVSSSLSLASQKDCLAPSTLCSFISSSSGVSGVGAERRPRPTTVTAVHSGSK
UniProt Q9BX84, sequence (whole entry, looked up): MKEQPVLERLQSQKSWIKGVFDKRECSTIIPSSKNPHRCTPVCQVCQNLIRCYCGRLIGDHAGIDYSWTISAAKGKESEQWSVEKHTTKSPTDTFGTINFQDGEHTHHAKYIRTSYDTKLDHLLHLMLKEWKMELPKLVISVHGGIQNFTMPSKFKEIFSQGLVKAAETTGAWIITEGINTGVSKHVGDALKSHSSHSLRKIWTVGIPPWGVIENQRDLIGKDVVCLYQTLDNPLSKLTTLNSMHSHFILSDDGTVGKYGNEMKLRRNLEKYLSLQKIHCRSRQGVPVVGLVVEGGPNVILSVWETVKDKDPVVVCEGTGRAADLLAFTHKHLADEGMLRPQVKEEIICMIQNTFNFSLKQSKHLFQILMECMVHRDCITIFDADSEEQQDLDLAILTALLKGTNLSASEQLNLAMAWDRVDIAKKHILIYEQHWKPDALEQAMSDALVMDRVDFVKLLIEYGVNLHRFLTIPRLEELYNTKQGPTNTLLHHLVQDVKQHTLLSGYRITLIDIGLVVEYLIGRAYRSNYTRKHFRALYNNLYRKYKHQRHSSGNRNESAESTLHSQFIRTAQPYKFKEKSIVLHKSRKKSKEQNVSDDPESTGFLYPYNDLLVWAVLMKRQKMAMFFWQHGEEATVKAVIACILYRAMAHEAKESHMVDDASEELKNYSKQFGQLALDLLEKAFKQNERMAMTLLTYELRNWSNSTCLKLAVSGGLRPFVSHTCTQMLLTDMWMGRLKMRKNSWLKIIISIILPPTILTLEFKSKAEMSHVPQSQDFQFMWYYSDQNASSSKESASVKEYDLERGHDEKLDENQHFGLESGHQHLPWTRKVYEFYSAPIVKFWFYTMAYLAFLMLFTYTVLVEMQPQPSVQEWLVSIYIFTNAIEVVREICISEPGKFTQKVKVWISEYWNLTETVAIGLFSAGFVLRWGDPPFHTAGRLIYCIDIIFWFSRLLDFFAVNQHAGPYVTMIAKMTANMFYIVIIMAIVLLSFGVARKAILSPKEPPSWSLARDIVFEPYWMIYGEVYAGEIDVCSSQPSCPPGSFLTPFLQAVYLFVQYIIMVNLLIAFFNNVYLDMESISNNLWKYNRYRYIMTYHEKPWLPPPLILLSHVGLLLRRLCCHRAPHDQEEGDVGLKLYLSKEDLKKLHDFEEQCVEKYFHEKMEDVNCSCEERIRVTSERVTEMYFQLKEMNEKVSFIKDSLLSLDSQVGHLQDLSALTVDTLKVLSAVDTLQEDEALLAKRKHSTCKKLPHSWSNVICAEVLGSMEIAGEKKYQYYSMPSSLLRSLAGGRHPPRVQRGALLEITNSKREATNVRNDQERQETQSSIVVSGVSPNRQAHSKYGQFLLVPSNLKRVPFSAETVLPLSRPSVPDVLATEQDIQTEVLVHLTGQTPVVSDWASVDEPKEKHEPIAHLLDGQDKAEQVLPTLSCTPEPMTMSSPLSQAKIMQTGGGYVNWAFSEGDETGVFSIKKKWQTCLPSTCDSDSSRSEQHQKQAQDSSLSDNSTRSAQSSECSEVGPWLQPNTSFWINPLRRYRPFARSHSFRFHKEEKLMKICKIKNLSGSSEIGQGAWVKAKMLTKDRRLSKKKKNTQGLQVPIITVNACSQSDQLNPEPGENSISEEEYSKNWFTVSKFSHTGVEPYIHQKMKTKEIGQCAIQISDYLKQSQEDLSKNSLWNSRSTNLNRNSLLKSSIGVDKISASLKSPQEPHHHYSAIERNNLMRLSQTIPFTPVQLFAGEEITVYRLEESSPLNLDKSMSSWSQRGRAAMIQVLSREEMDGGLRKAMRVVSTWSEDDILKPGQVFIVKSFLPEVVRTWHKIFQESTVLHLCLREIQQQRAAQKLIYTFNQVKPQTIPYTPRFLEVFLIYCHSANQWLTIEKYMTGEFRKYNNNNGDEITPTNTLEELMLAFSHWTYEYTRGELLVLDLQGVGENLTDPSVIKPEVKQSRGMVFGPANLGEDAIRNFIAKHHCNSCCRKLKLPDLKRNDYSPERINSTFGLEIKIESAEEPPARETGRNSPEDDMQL
UniProt O43683, sequence (whole entry, looked up): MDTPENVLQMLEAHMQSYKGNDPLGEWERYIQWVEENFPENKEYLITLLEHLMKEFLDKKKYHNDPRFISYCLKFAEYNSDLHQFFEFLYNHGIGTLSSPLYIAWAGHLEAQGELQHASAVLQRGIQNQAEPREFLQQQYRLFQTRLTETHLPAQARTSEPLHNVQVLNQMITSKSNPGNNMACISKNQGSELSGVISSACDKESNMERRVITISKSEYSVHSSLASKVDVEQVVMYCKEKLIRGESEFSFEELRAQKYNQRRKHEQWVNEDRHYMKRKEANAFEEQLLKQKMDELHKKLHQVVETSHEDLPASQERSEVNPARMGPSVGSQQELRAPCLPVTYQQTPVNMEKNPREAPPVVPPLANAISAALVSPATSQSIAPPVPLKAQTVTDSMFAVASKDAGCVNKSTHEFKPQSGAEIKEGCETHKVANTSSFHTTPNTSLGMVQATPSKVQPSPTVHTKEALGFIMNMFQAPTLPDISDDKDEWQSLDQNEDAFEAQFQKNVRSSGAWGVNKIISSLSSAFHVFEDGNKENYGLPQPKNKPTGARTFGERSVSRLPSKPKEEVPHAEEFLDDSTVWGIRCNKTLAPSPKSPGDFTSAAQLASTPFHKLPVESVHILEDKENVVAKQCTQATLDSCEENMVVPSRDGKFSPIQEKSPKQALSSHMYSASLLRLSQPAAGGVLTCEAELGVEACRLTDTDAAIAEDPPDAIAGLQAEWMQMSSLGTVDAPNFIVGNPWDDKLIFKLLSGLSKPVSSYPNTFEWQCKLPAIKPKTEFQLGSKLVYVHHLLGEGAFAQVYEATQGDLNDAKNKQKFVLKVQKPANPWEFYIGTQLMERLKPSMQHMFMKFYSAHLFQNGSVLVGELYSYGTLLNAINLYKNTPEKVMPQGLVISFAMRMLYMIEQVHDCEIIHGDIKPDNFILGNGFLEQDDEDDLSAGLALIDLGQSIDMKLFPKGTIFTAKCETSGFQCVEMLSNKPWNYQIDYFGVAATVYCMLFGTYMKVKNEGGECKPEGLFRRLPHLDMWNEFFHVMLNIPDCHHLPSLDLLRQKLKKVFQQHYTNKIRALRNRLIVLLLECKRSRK
UniProt Q9BXA7, sequence (whole entry, looked up): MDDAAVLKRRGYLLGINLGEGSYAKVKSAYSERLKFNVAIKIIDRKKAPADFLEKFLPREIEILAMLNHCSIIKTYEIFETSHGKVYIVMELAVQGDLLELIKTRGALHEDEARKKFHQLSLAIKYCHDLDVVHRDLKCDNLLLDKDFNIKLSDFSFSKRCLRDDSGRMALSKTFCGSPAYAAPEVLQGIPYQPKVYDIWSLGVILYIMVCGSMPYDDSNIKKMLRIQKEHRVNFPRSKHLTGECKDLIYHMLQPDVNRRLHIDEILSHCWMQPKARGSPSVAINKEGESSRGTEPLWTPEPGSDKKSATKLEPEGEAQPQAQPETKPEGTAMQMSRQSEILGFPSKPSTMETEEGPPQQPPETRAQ
UniProt Q15831, sequence (whole entry, looked up): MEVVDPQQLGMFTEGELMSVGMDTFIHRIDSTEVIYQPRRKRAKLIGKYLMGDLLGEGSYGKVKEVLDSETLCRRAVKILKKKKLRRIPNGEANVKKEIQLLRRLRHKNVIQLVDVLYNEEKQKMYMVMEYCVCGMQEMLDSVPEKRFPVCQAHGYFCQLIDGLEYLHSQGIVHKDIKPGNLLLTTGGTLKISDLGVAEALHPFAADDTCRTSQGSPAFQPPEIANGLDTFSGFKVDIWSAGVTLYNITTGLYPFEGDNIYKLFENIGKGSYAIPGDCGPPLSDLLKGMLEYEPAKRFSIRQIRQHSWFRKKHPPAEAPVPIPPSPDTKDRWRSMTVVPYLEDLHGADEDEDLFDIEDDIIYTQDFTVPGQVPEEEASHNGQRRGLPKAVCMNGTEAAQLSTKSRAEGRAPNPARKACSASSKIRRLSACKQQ

Study 1 — host: mouse; sample: microsomes or S9; tested at: 2 µM; time: 0.5 h; measurement: remaining compound
Cc1ccc(S(=O)(=O)NC2c3cccc4cccc(c34)C2Sc2n[nH]c(N)n2)cc1 (stereo not drawn): 1.16%
Cc1ccc(NC(=O)C(C)C(=O)Nc2ccc(C)cc2)cc1: 17.5%
COc1cc(OC)c(C2Nc3cc(C)c(C)cc3NC3=C2C(=O)CC(C)(C)C3)cc1OC (stereo not drawn): 35.6%
COc1ccc(OC)c(NC(=O)c2ccc(N(C)S(=O)(=O)c3ccc(OC)c(OC)c3)cc2)c1: 21.3%
OC1(CNCc2ccccc2)CCc2ccccc21 (stereo not drawn): 5.67%
CN1CC[C@H](OC(=O)C2(c3ccc(F)cc3)CCCC2)C1: 21.5%

Study 2 — effect on: cell-free assay; technique: competition with immobilised ligand; tested at: 1 µM; measurement: remaining binding
SMILES: CO[C@@H](C)c1c(Nc2ccc([C@H](N(C)C(=O)C3CCS(=O)(=O)CC3)C(F)(F)F)cc2)cnc2cc(Cl)nn12
Transient receptor potential cation channel subfamily M member 6 (TRPM6, Homo sapiens, UniProt Q9BX84): 100%
Beta-adrenergic receptor kinase 1 (GRK2, Homo sapiens, UniProt P25098): 84%
Casein kinase I isoform alpha (CSNK1A1, Homo sapiens, UniProt P48729): 51%
Mitotic checkpoint serine/threonine-protein kinase BUB1 (BUB1, Homo sapiens, UniProt O43683): 100%
Calcium/calmodulin-dependent protein kinase type II subunit alpha (CAMK2A, Homo sapiens, UniProt Q9UQM7): 83%
LIM domain kinase 1 (LIMK1, Homo sapiens, UniProt P53667): 100%
Membrane-associated tyrosine- and threonine-specific cdc2-inhibitory kinase (PKMYT1, Homo sapiens, UniProt Q99640): 85%
Calcium/calmodulin-dependent protein kinase type 1D (CAMK1D, Homo sapiens, UniProt Q8IU85): 99%
MAP kinase-activated protein kinase 2 (MAPKAPK2, Homo sapiens, UniProt P49137): 90%
Serine/threonine-protein kinase STK11 (STK11, Homo sapiens, UniProt Q15831): 68%
Testis-specific serine/threonine-protein kinase 1 (TSSK1B, Homo sapiens, UniProt Q9BXA7): 100%
G protein-coupled receptor kinase 3 (GRK3, Homo sapiens, UniProt P35626): 100%
Dual specificity tyrosine-phosphorylation-regulated kinase 1B (DYRK1B, Homo sapiens, UniProt Q9Y463): 78%
Tyrosine-protein kinase ABL1, phosphorylated (ABL1, Homo sapiens, UniProt P00519, Q252H): 100%
Cyclin-dependent kinase 4 (CDK4, Homo sapiens, UniProt P11802): 100%

Study 3 — technique: phase 2a trial; host: idiopathic pulmonary fibrosis patients; measurement: adverse event incidence
Structure (SMILES): CC(C)n1cnc(-c2ccc(F)cc2)c1-c1ncc(C(=O)Nc2ccc(N3CCN(C)CC3)cc2)[nH]1
measured: hepatic enzyme abnormal; dose not given, grade 4, all arms pooled: 0%
measured: appendicitis; dose not given, grade 2, all arms pooled: 0%
measured: weight decreased; 30 mg once daily, grade 4: 0%
measured: QRS axis abnormal; 60 mg once daily, grade 2: 0%
measured: liver injury; 60 mg once daily, grade 4: 0%
measured: gingivitis; 60 mg once daily, grade 1: 0%
measured: carotid intima-media thickening; 30 mg once daily, grade 5: 0%
measured: hepatic enzyme abnormal; 30 mg once daily, grade 3: 0%

Further values, each from its own experiment
CC(C)(C)c1cnc(CSc2cnc(NC(=O)C3CCNCC3)s2)o1  tumour volume (nude mouse, HH xenograft; dose not given, day 4): 62.5 mm³ and 33 mm³ and 60.3 mm³ and 71.2 mm³ and 52.3 mm³ and 49.4 mm³ and 71.4 mm³

For quick reference, copied from above (study 2):
Membrane-associated tyrosine- and threonine-specific cdc2-inhibitory kinase (PKMYT1, Homo sapiens, UniProt Q99640): 85%
G protein-coupled receptor kinase 3 (GRK3, Homo sapiens, UniProt P35626): 100%
